Measurements gathered from unrelated publications.
Organism: Bacillus subtilis

| Compound | technique | strain | medium | time | temperature | notes | MIC |
| --- | --- | --- | --- | --- | --- | --- | --- |
| CC[C@H](C)[C@H](N)C(=O)N[C@@H](CCCNC(=N)N)C(=O)N[C@H](C(=O)N[C@@H](Cc1c[nH]c2ccccc12)C(=O)N[C@@H](Cc1ccccc1)C(=O)N[C@H](C(=O)N[C@@H](CCCCN)C(=O)N[C@H](C(=O)N[C@@H](CCCNC(=N)N)C(=O)N[C@@H](CCCCN)C(=O)N[C@@H](CCSC)C(=O)N[C@@H](CCCCN)C(=O)N[C@@H](C)C(=O)N[C@H](C(=O)N[C@@H](Cc1ccc(O)cc1)C(=O)N[C@@H](Cc1c[nH]cn1)C(N)=O)[C@@H](C)CC)C(C)C)[C@@H](C)CC)C(C)C | broth dilution | KCTC 3068 |  |  |  |  | 50 µM |
| CC[C@H](C)[C@H](NC(=O)CN)C(=O)NCC(=O)N[C@@H](C)C(=O)N[C@H](C(=O)N[C@@H](CC(C)C)C(=O)N[C@@H](CCCCN)C(=O)N[C@H](C(=O)N[C@@H](CC(C)C)C(=O)N[C@H](C(=O)N[C@H](C(=O)NCC(=O)N[C@@H](CC(C)C)C(=O)N1CCC[C@H]1C(=O)N[C@@H](C)C(=O)N[C@@H](CC(C)C)C(=O)N[C@H](C(=O)N[C@@H](CO)C(=O)N[C@@H](Cc1c[nH]c2ccccc12)C(=O)N[C@H](C(=O)N[C@@H](CCCCN)C(=O)N[C@@H](CCCNC(=N)N)C(=O)N[C@@H](CCCCN)C(=O)N[C@@H](CCCNC(=N)N)C(=O)N[C@@H](CCC(N)=O)C(=O)N[C@@H](CCC(N)=O)C(N)=O)[C@@H](C)CC)[C@@H](C)CC)[C@@H](C)O)[C@@H](C)O)C(C)C)C(C)C | broth microdilution | KCTC 1998 |  | 18 h | 37 °C |  | 2 µM |
| CN[C@H](CC(C)C)C(=O)N[C@H]1C(=O)N[C@@H](CC(N)=O)C(=O)N[C@H]2C(=O)N[C@H]3C(=O)N[C@H](C(=O)N[C@H](C(=O)NCC(N)=O)c4cc(O)cc(O)c4-c4cc3ccc4O)[C@H](O)c3ccc(c(Cl)c3)Oc3cc2cc(c3O[C@@H]2O[C@H](CO)[C@@H](O)[C@H](O)[C@H]2O[C@H]2C[C@](C)(NCc3ccc(OCc4cn(CC(=O)N[C@H](C(=O)N[C@@H](CCN)C(=O)N[C@H]5CCNC(=O)[C@H]([C@@H](C)O)NC(=O)[C@H](CCN)NC(=O)[C@H](CCN)NC(=O)[C@H](CC(C)C)NC(=O)[C@@H](CC(C)C)NC(=O)[C@H](CCN)NC5=O)[C@@H](C)O)nn4)c(OC)c3)[C@H](O)[C@H](C)O2)Oc2ccc(cc2Cl)[C@H]1O | broth microdilution | 168 | cation-adjusted Mueller-Hinton broth |  |  |  | ≤ 0.003 µM |
| CC(C)C[C@H](NC(=O)[C@H](CCCNC(=N)N)NC(=O)[C@H](C)NC(=O)[C@H](CC(C)C)NC(=O)[C@H](CCCNC(=N)N)NC(=O)[C@H](C)NC(=O)[C@H](CCCCN)NC(=O)[C@H](CC(C)C)NC(=O)[C@H](CCCNC(=N)N)NC(=O)[C@H](Cc1ccc(O)cc1)NC(=O)[C@H](CC(C)C)NC(=O)[C@H](CCCNC(=N)N)NC(=O)[C@H](C)NC(=O)[C@H](CCCNC(=N)N)NC(=O)[C@H](CC(C)C)NC(=O)[C@H](CCCCN)NC(=O)[C@H](C)NC(=O)[C@H](CC(C)C)NC(=O)[C@H](CCCNC(=N)N)NC(=O)[C@H](C)NC(=O)[C@@H](N)CCCCN)C(N)=O | broth microdilution | ATCC 6633 |  | 24 h |  |  | < 1 µM |
| CC(=O)N[C@@H](CC(C)C)C(=O)N[C@H]1CSSC[C@@H](C(=O)N2CCC[C@H]2C(N)=O)NC(=O)[C@H]([C@@H](C)O)NC(=O)[C@H](C(C)C)NC(=O)[C@H]([C@@H](C)O)NC(=O)CNC(=O)[C@H](CC(C)C)NC(=O)[C@H](Cc2ccccc2)NC(=O)[C@H](Cc2ccc(O)cc2)NC(=O)[C@H](CC(C)C)NC(=O)[C@H](CCCCN)NC(=O)[C@H](Cc2ccccc2)NC(=O)[C@H](CCCNC(=N)N)NC(=O)[C@H](CCCCN)NC(=O)[C@H](CC(C)C)NC(=O)[C@H](CCCCN)NC(=O)[C@@H]2CCCN2C(=O)[C@H](CCCCN)NC(=O)[C@H](C(C)C)NC(=O)[C@H](CC(N)=O)NC(=O)[C@H](Cc2ccc(O)cc2)NC(=O)[C@H]([C@@H](C)O)NC1=O | broth dilution | CGMCC strain |  | 24 h |  |  | 1.25 to 2.5 µM |
| CC[C@H](C)[C@H](N)C(=O)N[C@H](C)C(=O)N[C@@H](CC(C)C)C(=O)N[C@H](CCC(=O)O)C(=O)N[C@H](C(=O)N[C@H]1CCCCNC(=O)[C@H](CC(N)=O)NC(=O)[C@@H](CC(=O)O)NC(=O)[C@H](Cc2c[nH]cn2)NC(=O)[C@@H](Cc2ccccc2)NC(=O)[C@H]([C@@H](C)CC)NC(=O)[C@@H](CCCN)NC1=O)[C@@H](C)CC |  | 168 |  | 18 h | 37 °C | 0.3 mM ZnSO4 LB | > 64 µg/mL |
| CN[C@H](CC(C)C)C(=O)N[C@H]1C(=O)N[C@@H](CC(N)=O)C(=O)N[C@H]2C(=O)N[C@H]3C(=O)N[C@H](C(=O)N[C@H](C(=O)N[C@@H](CCCNC(=N)N)C(N)=O)c4cc(O)cc(O)c4-c4cc3ccc4O)[C@H](O)c3ccc(c(Cl)c3)Oc3cc2cc(c3O[C@@H]2O[C@H](CO)[C@@H](O)[C@H](O)[C@H]2O[C@H]2C[C@](C)(NCc3ccc(OCc4cn(CC(=O)N[C@H](C(=O)N[C@@H](CCN)C(=O)N[C@H]5CCNC(=O)[C@H]([C@@H](C)O)NC(=O)[C@H](CCN)NC(=O)[C@H](CCN)NC(=O)[C@H](CC(C)C)NC(=O)[C@@H](CC(C)C)NC(=O)[C@H](CCN)NC5=O)[C@@H](C)O)nn4)c(OC)c3)[C@H](O)[C@H](C)O2)Oc2ccc(cc2Cl)[C@H]1O | broth microdilution | 168 | cation-adjusted Mueller-Hinton broth |  |  |  | ≤ 0.003 µM |
| CC[C@H](C)[C@H](NC(=O)[C@@H](CCC(=O)O)NC(=O)[C@H](CC(C)C)NC(=O)c1cccc(-c2ccccn2)n1)C(=O)N[C@H]1CCCCNC(=O)[C@H](CC(N)=O)NC(=O)[C@@H](CC(=O)O)NC(=O)[C@H](Cc2c[nH]cn2)NC(=O)[C@@H](Cc2ccccc2)NC(=O)[C@H]([C@@H](C)CC)NC(=O)[C@@H](CCCN)NC1=O |  | 168 |  | 18 h | 37 °C | 0.3 mM ZnSO4 LB | > 64 µg/mL |
| CN[C@H](CC(C)C)C(=O)N[C@H]1C(=O)N[C@@H](CC(N)=O)C(=O)N[C@H]2C(=O)N[C@H]3C(=O)N[C@H](C(=O)N[C@H](C(=O)O)c4cc(O)cc(O)c4-c4cc3ccc4O)[C@H](O)c3ccc(c(Cl)c3)Oc3cc2cc(c3O[C@@H]2O[C@H](CO)[C@@H](O)[C@H](O)[C@H]2O[C@H]2C[C@](C)(NCc3ccc(OCc4cn(CC(=O)N[C@H](C(=O)N[C@@H](CCN)C(=O)N[C@H]5CCNC(=O)[C@H]([C@@H](C)O)NC(=O)[C@H](CCN)NC(=O)[C@H](CCN)NC(=O)[C@H](CC(C)C)NC(=O)[C@@H](CC(C)C)NC(=O)[C@H](CCN)NC5=O)[C@@H](C)O)nn4)c(OC)c3)[C@H](O)[C@H](C)O2)Oc2ccc(cc2Cl)[C@H]1O | broth microdilution | 168 | cation-adjusted Mueller-Hinton broth |  |  |  | 0.095 µM |
| CC[C@H](C)[C@H](NC(=O)[C@H](Cc1c[nH]c2ccccc12)NC(=O)[C@H](Cc1ccc(O)cc1)NC(=O)[C@H](CCCCN)NC(=O)[C@H](CC(C)C)NC(=O)[C@H](CO)NC(=O)[C@@H](N)Cc1ccccc1)C(=O)N[C@@H](CCCNC(=N)N)C(=O)N[C@@H](Cc1ccc(O)cc1)C(=O)N[C@@H](CCCCN)C(=O)N[C@@H](CCCNC(=N)N)C(=O)N[C@@H](CCC(N)=O)C(=O)NCC(=O)N[C@@H](C)C(=O)N[C@@H](C)C(=O)N[C@@H](CCCNC(=N)N)C(=O)N[C@@H](Cc1ccccc1)C(N)=O | broth dilution | KCTC 3068 |  |  |  |  | 6.3 µM |

For quick reference, copied from above:
| Compound | technique | strain | medium | time | temperature | notes | MIC |
| --- | --- | --- | --- | --- | --- | --- | --- |
| CC[C@H](C)[C@H](N)C(=O)N[C@@H](CCCNC(=N)N)C(=O)N[C@H](C(=O)N[C@@H](Cc1c[nH]c2ccccc12)C(=O)N[C@@H](Cc1ccccc1)C(=O)N[C@H](C(=O)N[C@@H](CCCCN)C(=O)N[C@H](C(=O)N[C@@H](CCCNC(=N)N)C(=O)N[C@@H](CCCCN)C(=O)N[C@@H](CCSC)C(=O)N[C@@H](CCCCN)C(=O)N[C@@H](C)C(=O)N[C@H](C(=O)N[C@@H](Cc1ccc(O)cc1)C(=O)N[C@@H](Cc1c[nH]cn1)C(N)=O)[C@@H](C)CC)C(C)C)[C@@H](C)CC)C(C)C | broth dilution | KCTC 3068 |  |  |  |  | 50 µM |
